Experimental data collected from several papers.
Protocols differ between the studies behind these lines. Numbers after ± are the reported error.
Organism: Plasmodium falciparum

CC[C@H](C)[C@@H]1NC(=O)[C@H](CCCCN)NC(=O)[C@H](CCCCN)NC(=O)[C@H](Cc2ccc(O)cc2)NC(=O)[C@H](CC(C)C)NC(=O)[C@@H]2CCCN2C(=O)[C@H](C)NC(=O)CNC(=O)CNC(=O)[C@H](CO)NC(=O)CNC(=O)CNC(=O)[C@H](CO)NC(=O)[C@H](CCC(=O)O)NC(=O)[C@H](CC(C)C)NC(=O)[C@H](CC(C)C)NC(=O)[C@H](CCCCN)NC(=O)[C@H](CCCCN)NC(=O)[C@H]([C@@H](C)CC)NC(=O)[C@H]([C@@H](C)CC)NC(=O)[C@H](CCCCN)NC(=O)[C@H](CCCCN)NC(=O)[C@H](Cc2ccc(O)cc2)NC(=O)[C@H](CC(C)C)NC(=O)[C@@H]2CCCN2C(=O)[C@H](C)NC(=O)CNC(=O)[C@@H]2CSSC[C@H](NC(=O)[C@H](CC(C)C)NC(=O)[C@H](CCCCN)NC(=O)[C@H](CCCCN)NC(=O)[C@H]([C@@H](C)CC)NC1=O)C(=O)N[C@@H](CCCCN)C(=O)N[C@@H](CC(N)=O)C(=O)NCC(=O)N2 gave a selectivity index of 1.7 ± 0.3 (3D7; 5 mg/mL Albumax II; baseline: RBC HC10 over P. falciparum IC50).
COc1cc2nc(N3CCCCC3)nc(NC3CCN(C)CC3)c2cc1OC — result for H3K9me3 level: “decreased” (Western blot; 3D7; 5-fold IC50, 12 h; baseline: DMSO).
Cc1ccc(NCC(=O)N2CCC(F)(F)CC2)cc1S(=O)(=O)N1CCOCC1 gave an EC50 of greater than 50 µM (parasite growth; 3D7; blood stage).
With Cc1ccc(CNC(=O)[C@H](CC(C)C)NC(=O)[C@H](CCc2ccccc2)NC(=O)c2cnc(C)cn2)cc1 the selectivity ratio was 276 (D10; 72 h; baseline: HFF EC50 over P. falciparum EC50).
For CC[C@H](C)[C@@H]1NC(=O)[C@H](CCCCN)NC(=O)[C@H](CCCCN)NC(=O)[C@H](Cc2ccc(O)cc2)NC(=O)[C@H](CC(C)C)NC(=O)[C@@H]2CCCN2C(=O)[C@H](C)NC(=O)CNC(=O)CNC(=O)[C@H](CO)NC(=O)CNC(=O)CNC(=O)[C@H](CO)NC(=O)[C@H](CCC(=O)O)NC(=O)[C@H](CC(C)C)NC(=O)[C@H](CC(C)C)NC(=O)[C@H](CCCNC(=N)N)NC(=O)[C@H](CCCCN)NC(=O)[C@H]([C@@H](C)CC)NC(=O)[C@H]([C@@H](C)CC)NC(=O)[C@H](CCCCN)NC(=O)[C@H](CCCCN)NC(=O)[C@H](Cc2ccc(O)cc2)NC(=O)[C@H](CC(C)C)NC(=O)[C@@H]2CCCN2C(=O)[C@H](C)NC(=O)CNC(=O)CNC(=O)[C@H](CO)NC(=O)CNC(=O)CNC(=O)[C@H](CO)NC(=O)[C@H](CCC(=O)O)NC(=O)[C@H](CC(C)C)NC(=O)[C@H](CC(C)C)NC(=O)[C@H](CCCNC(=N)N)NC(=O)[C@H](CCCCN)NC(=O)[C@H]([C@@H](C)CC)NC1=O, the selectivity index was 2.8 ± 0.9 (3D7; 5 mg/mL Albumax II; baseline: RBC HC10 over P. falciparum IC50).
Under antiplasmodial activity, Nc1ccc(C(=O)/C=C/c2ccccc2F)cc1 is recorded as “active” (concentration not given).
The IC50 of CC1=CC(=CNC2CCCCCC2)N=C1c1ccc[nH]1 is reported as 2.11 µM (parasite growth, SYBR Green I fluorescence; D6, chloroquine-sensitive).
CC[C@H](C)[C@@H]1NC(=O)[C@H](CCCCN)NC(=O)[C@H](CCCCN)NC(=O)[C@H](Cc2ccc(O)cc2)NC(=O)[C@H](CC(C)C)NC(=O)[C@@H]2CCCN2C(=O)[C@H](C)NC(=O)CNC(=O)CNC(=O)[C@H](CO)NC(=O)CNC(=O)CNC(=O)[C@H](CO)NC(=O)[C@H](CCCCN)NC(=O)[C@H](CC(C)C)NC(=O)[C@H](CC(C)C)NC(=O)[C@H](CCCCN)NC(=O)[C@H](CCCCN)NC(=O)[C@H]([C@@H](C)CC)NC(=O)[C@H]([C@@H](C)CC)NC(=O)[C@H](CCCCN)NC(=O)[C@H](CCCCN)NC(=O)[C@H](Cc2ccc(O)cc2)NC(=O)[C@H](CC(C)C)NC(=O)[C@@H]2CCCN2C(=O)[C@H](C)NC(=O)CNC(=O)CNC(=O)[C@H](CO)NC(=O)CNC(=O)CNC(=O)[C@H](CO)NC(=O)[C@H](CCC(=O)O)NC(=O)[C@H](CC(C)C)NC(=O)[C@H](CC(C)C)NC(=O)[C@H](CCCCN)NC(=O)[C@H](CCCCN)NC(=O)[C@H]([C@@H](C)CC)NC1=O has a selectivity index of roughly 30 (3D7; 5 mg/mL Albumax II; baseline: RBC HC10 over P. falciparum IC50).
Under “IPP level reduction”, CNC(=O)[C@@H]1Cc2c([nH]c3ccccc23)[C@@H](c2ccc(Cl)cc2Cl)N1 is recorded as greater than 90% (schizont stage; 1 µM, 4 h; baseline: untreated).
With COc1cc(O)c(-c2cc(-c3cc(-c4c(O)cc(OC)c5c4C[C@@H](C)N[C@@H]5C)c4cc(C)cc(OC)c4c3O)c(O)c3c(OC)cc(C)cc23)c2c1[C@@H](C)N[C@H](C)C2 the inhibition was greater than 70% (gametocyte viability, luciferase reporter; NF54-Pfs16-GFP-Luc, early stage II/III; 5 µM, 48 h).
With C[OH+][Cu-2]12[O]C(c3cn(-c4ccccc4)nc3-c3ccc(Cl)cc3)=N[N+]1=C(C)c1c(cc(C)oc1=O)[O]2 (stereo not drawn) the parasitaemia was 21.7% (3D7; 12.5 µg/mL, 72 h).
With C#CCOCCCC1OC2OC3(C)CCC4C(C)CCC(C1C)C24O3 (stereo not drawn) the selectivity index was greater than 2.51 (W2; 72 h; baseline: HepG2 over blood-stage parasites).
With CC1=CC(c2ccc[nH]2)=NC1=CNC1CCCCCC1 the IC50 was greater than 0.25 µM (parasite growth, SYBR Green I fluorescence; D6, chloroquine-sensitive).
With Cc1ccc(CNC(=O)[C@@H](NC(=O)[C@H](CCc2ccccc2)NC(=O)[C@@H](NC(=O)c2cnc(C)cn2)C(C)(C)C)C(C)C)cc1 the selectivity ratio was 45 (D10; 72 h; baseline: HFF EC50 over P. falciparum EC50).
c1ccc(Cn2c(N3CCNCC3)nc3cccnc32)cc1 — result for antiplasmodial activity: “inactive” (pLDH; NF54; concentration not given, 48 h).
COc1cc(C)c(-c2ccc3c(c2O)[C@@H](C)N[C@H](C)C3)c2ccc(-c3c(C)c(-c4ccc5c(c4O)[C@@H](C)N[C@H](C)C5)c4cccc(OC)c4c3O)c(O)c12 gave an inhibition of greater than 70% (gametocyte viability, luciferase reporter; NF54-Pfs16-GFP-Luc, early stage II/III; 5 µM, 48 h).
With CCCCN1C(=O)c2ccc3c4c(ccc(c24)C1=O)C(=O)N(CCNc1c2ccc(Cl)cc2nc2ccc(OC)cc12)C3=O the inhibition was roughly 80% (parasite growth, SYBR Green; 3D7; 50 nM, blood stage).
C[OH+][Cu-2]12[O]C(c3cn(-c4ccccc4)nc3-c3ccc(C)cc3)=N[N+]1=C(C)c1c(cc(C)oc1=O)[O]2 (stereo not drawn) has a parasitaemia suppression of 100% (3D7; 100 µg/mL, 72 h).
Under “antiplasmodial activity class”, C=C1[C@@H]([C@@]2(C)C=CC(=O)C(C)(C)[C@@H]2CC(=O)OC)[C@@H](OC(C)=O)[C@H](OC(C)=O)[C@@]2(C)[C@H](c3ccoc3)C[C@H]3O[C@]132 is recorded as “active” (parasite growth; D6 and W2; concentration not given).
For CCN(CC)c1ccc2nc3c4ccccc4/c(=N/c4ccncc4)cc-3oc2c1, the growth inhibition was greater than 99% (NF54; 250 ng/mL, 24 h, rings, trophozoites, schizonts).
For CC[C@H](C)[C@H](NC(=O)[C@@H](NC(=O)[C@H](Cc1ccc(O)cc1)NC(=O)[C@H](CCCCN)NC(=O)[C@H](CCCCN)NC(=O)[C@H](CC(C)C)NC(=O)[C@H](CC(=O)O)NC(=O)[C@H](Cc1ccc(O)cc1)NC(=O)[C@H](CCC(N)=O)NC(=O)[C@H](CCCCN)NC(=O)[C@@H](NC(=O)[C@H](Cc1ccccc1)NC(=O)[C@H](CCCCN)NC(=O)[C@H](CCCCN)NC(=O)[C@H](Cc1c[nH]c2ccccc12)NC(=O)[C@H](CCCCN)NC(=O)[C@H](CCSC)NC(=O)[C@H](CCCNC(=N)N)NC(=O)[C@H](CCCNC(=N)N)NC(=O)[C@H](CC(N)=O)NC(=O)[C@H](CCC(N)=O)NC(=O)[C@H](Cc1ccccc1)NC(=O)[C@H](Cc1c[nH]c2ccccc12)NC(=O)[C@@H](NC(=O)[C@H](CCCCN)NC(=O)[C@@H](NC(=O)[C@H](CCC(N)=O)NC(=O)[C@@H](N)CCCNC(=N)N)[C@@H](C)CC)[C@@H](C)CC)[C@@H](C)CC)[C@@H](C)CC)C(=O)O, “maximum TUNEL-positive parasites” read roughly 50% (50 µM, 16 h).
C[OH+][Cu-2]12[O]C(c3cn(-c4ccccc4)nc3-c3ccccc3)=N[N+]1=C(C)c1c(cc(C)oc1=O)[O]2 (stereo not drawn) gave a parasitaemia suppression of 100% (3D7; 12.5 µg/mL, 72 h).
c1ccc(CCCNc2ncnc3cc(OCC4CCN(CCNc5ccnc6ccccc56)CC4)ccc23)cc1 has a parasites killed of no more than 50% (NF54; concentration not given, 6 h, early ring stage, IC50 concentration).
COc1ccc2c(c1)C1CC(C)(N2)c2c(C)nc3ccc(OC)cc3c21 (stereo not drawn) has an IC50 of 0.2255 ± 0.0017 µM (parasite growth, SYBR green I; 3D7).
Cc1ccc(CNC(=O)[C@@H](NC(=O)[C@H](CCc2ccccc2)NC(=O)[C@H](CCc2ccccc2)N(C)C)C(C)C)cc1 has a selectivity ratio of 51 (D10; 72 h; baseline: HFF EC50 over P. falciparum EC50).
For CCCCNc1c2ccc(Cl)cc2nc2ccc(OC)cc12, the selectivity index was greater than 0.75 (NIH3T3, 3D7; baseline: CC50 over IC50).
Under schizont rupture, COc1ccc(-c2cn(C3CCCC3)c3ncnc(N)c23)cc1 is recorded as “no effect” (FVO; invasion IC50).
With C[OH+][Cu-2]12[O]C(c3cn(-c4ccccc4)nc3-c3ccc(Br)cc3)=N[N+]1=C(C)c1c(cc(C)oc1=O)[O]2 (stereo not drawn) the parasitaemia was 23.6% (3D7; 12.5 µg/mL, 72 h).
Cc1ccc(NC(C)(C)C(=O)Nc2ccc(F)c(Cl)c2)cc1S(=O)(=O)N1CC2(COC2)C1 has an EC50 of 0.12 µM (parasite growth; 3D7; blood stage).
CCC1=C(C)C(c2ccc[nH]2)=NC1=CNC12CC3CC(CC(C3)C1)C2 has an IC50 of 0.019 µM (parasite growth, SYBR Green I fluorescence; D6, chloroquine-sensitive).
With C[OH+][Cu-2]12[O]C(c3cn(-c4ccccc4)nc3-c3ccc(F)cc3)=N[N+]1=C(C)c1c(cc(C)oc1=O)[O]2 (stereo not drawn) the parasitaemia suppression was 100% (3D7; 100 µg/mL, 72 h).
With CC1=CC(=CNC23CC4CC(CC(C4)C2)C3)N=C1c1ccc[nH]1 the IC50 was 0.106 µM (parasite growth, SYBR Green I fluorescence; D6, chloroquine-sensitive).
Under merozoite release, Nc1ncnc2c1c(-c1ccc(Oc3ccccc3)cc1)cn2C1CCCC1 is recorded as “no effect” (schizont-infected red blood cells, FVO; 30 µM).

Some of these lines once more:
With C[OH+][Cu-2]12[O]C(c3cn(-c4ccccc4)nc3-c3ccc(Cl)cc3)=N[N+]1=C(C)c1c(cc(C)oc1=O)[O]2 (stereo not drawn) the parasitaemia was 21.7% (3D7; 12.5 µg/mL, 72 h).
With C#CCOCCCC1OC2OC3(C)CCC4C(C)CCC(C1C)C24O3 (stereo not drawn) the selectivity index was greater than 2.51 (W2; 72 h; baseline: HepG2 over blood-stage parasites).
With CC1=CC(c2ccc[nH]2)=NC1=CNC1CCCCCC1 the IC50 was greater than 0.25 µM (parasite growth, SYBR Green I fluorescence; D6, chloroquine-sensitive).
